Results gathered from unrelated publications.
Numbered parts are unrelated; each lists some results of a single study.

Set 1
Target: Prothrombin, mature alpha-thrombin (F2, Homo sapiens, UniProt P00734)
Method: aptamer microarray, sandwich
Form: DNA with 2'F-ANA
Medium: in vitro
Concentration: 200 nM
Setting: whole 15-mer aptamer, many near background
Added: Cy3 exosite-II aptamer, 400 nM
Reading: higher = stronger binding
Sequence: GGTTGGTGTGGTTGG
Modification	mean fluorescence intensity
2'F-ANA at 3 4 5 10 14 15	121 a.u.
2'F-ANA at 1 9 10 13 14	46.8 a.u.
2'F-ANA at 3 6 8 9 10 11 13	363 a.u.
2'F-ANA at 3 5 6 7 8 11 13 14 15	87 a.u.
2'F-ANA at 3 7 10 11 12 13 14 15	449 a.u.
2'F-ANA at 1 3 4 6 8 12 14 15	89.1 a.u.
2'F-ANA at 1 2 6 7 9 11 12 13 14 15	57.7 a.u.
2'F-ANA at 1 4 7 9 10 13 14	53.5 a.u.
2'F-ANA at 5 8 10 12 14 15	46.7 a.u.
2'F-ANA at 1 3 8 9 10 12 13 14	58.6 a.u.
2'F-ANA at 3 4 6 7 9 11	559 a.u.
2'F-ANA at 1 2 5 7 8 9 13	52 a.u.
2'F-ANA at 1 2 3 4 6 9 10 11 12 14 15	79 a.u.
2'F-ANA at 4 9 11 12 13	374 a.u.
2'F-ANA at 1 2 3 4 6 8 11 13 15	126 a.u.
2'F-ANA at 5 6 7 10 11 12 13 14	45.5 a.u.
2'F-ANA at 1 4 6 9 11 12 13 14	50.4 a.u.
2'F-ANA at 4 6 8 13	204 a.u.
2'F-ANA at 1 3 7 8 9 10 11 12 13 14	63 a.u.
2'F-ANA at 1 2 4 5 8 9 10 12 14 15	46.4 a.u.
2'F-ANA at 1 4 5 7 8 11 13 14	44.4 a.u.
2'F-ANA at 3 5 6 7 9 11	86.3 a.u.
2'F-ANA at 1 2 3 5 8 9 10 12 15	51.7 a.u.

Set 2
Target: RNA binding protein fox-1 homolog 2, RRM domain, GST-SBP tag (RBFOX2, Homo sapiens, UniProt O43251-10, residues 100-194)
Method: RNA Bind-n-Seq
Form: RNA
Medium: in vitro
Concentration: 365 nM
Setting: natural RNA segment, single round, ends assumed
Relative to: no-protein control
Reading: higher = stronger binding
Shared flanks, not repeated: GGGAGUUCUACAGUCCGACGAUC … UGGAAUUCUCGGGUGCCAA
Construct (chain): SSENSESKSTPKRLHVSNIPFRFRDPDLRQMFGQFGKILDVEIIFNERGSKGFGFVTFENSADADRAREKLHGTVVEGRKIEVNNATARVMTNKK
Sequence	RBNS enrichment (R)
UGCAGCAUCCCACCAUCCUCCAGACAGACCACCUGACCCCUUCUCAACUCUGUAACAUGGACGCAACCUCAACCCGGCGCAGUUACAACUUCACUGUCAGUGGAAGGGGA	0.365
ACCCAGCCUGGGCCUGGAUGCUCUGUGAAUACAUUAUCUUGCGAUGUUGGGUUAUUCCAGCCAAAGACAUUUCAAGUGCCUGUAACUGAUUUGUACAUAUUUAUAAAAAU	0.493
AGGGAAUACAAGGUGCUAGGUACCCUCCUUCCUCGUUGGCCACUAAGAGGUCUUAGAAACAUAGCCUGUAAAUGUGUCUUGUAACUGGCACACUAAAAAAGAUCCUAGUU	0.719
CACGAGAUUCACUCAUUGGAUUUAUGCAGUGCCCUGUCUGUAUAAAAACUCUUAAGAGUUCCUUUAUAUCAUAUUCUUCAGAGCCAACAUUUGUCCUCAAAGCAACGUUU	0.353
UUUCCUCUUGAGGAUACUUAGGGUAAACUGGAUCCUUCCUGCUCAAGGAUCCUCAUUUGUAUACCUAGUGGAAAGGACUCUGAACUCAGAGGAGUCACUGUUCCUUUUUU	0.428
UUCUUGGUUGUGUCACCCCCAAAGAGUCAGAACUGUACACAGUUCAAAACUUAGUGACUGUGGGUCACAUUCCCACUGUUGAAACUGCUAAAUUGUGACCUGGGGAAGGA	0.507
UCUUAAGCCUUAUUCUUCAACUAAAAGAUGAGGAUUAAGAGCAAGAAGUUGGGGGGGAUGUGAAAAUAAUUUUAUGAGGUUGUCUAAAAUAAAGAGUAGUUUCUUAUCCU	0.397
UACUGCCCAGAAUGUUAGCAUAAAACAACACAGGAAGCUGAUAAAAAUAGCAGCUGUUGUUUCUCUUUGGAAAGUGACAGCAGAAGUUGGUGGCAUGGGACUUUUUGUCC	9.55
CCCCGGCCCAGAUCCUGGCCGUCUCAUCCCAUACUUCUGUGGGGAAUCAGCCUCCUGCCACCCCCCCGGAAGGACCUCACUGUCUCCAGCUAUGCCCAGUGCUGCAUGGG	0.524
AUGAUACCAAAUUCAGGGGUGUCACAGCCAUUUUGUUCUGCCCUGCAAGUUUUAGAUCCAAUCUGCCUCAACAGUCAAUCAGUGUUCAUAUUUAUGGCCAGGCAUUCUAU	0.777
AAUUUAACUGGCUUUUAAAUAUCCCCUUCCGCUGAUAUUUGUUGUCAGCUGCCUACAGUUUAAUAUGCAGCGUUCACAAAACAGCUGCCAGUGCUACAAUUAAUGAAGCA	0.303
AAAGGUUACCCUCCCACCCCCGCUAUUUCUCAUGAUUCGUCAAUAUCUAGGUUAGGUAUUGAAAGAUCUUUCUAAGCAUCUGGUACUAUGAUCAGGACCAUAUCCUGCCC	0.417

Set 3
Target: Histone acetyltransferase KAT6A, winged helix 1, GST fusion (KAT6A, Homo sapiens, UniProt Q92794, residues 1-85)
Method: protein binding microarray
Form: double-stranded DNA, one strand shown
Medium: in vitro
Concentration: not given
Setting: 8-mer, flanks averaged, mean of 2 arrays, mostly near background
Relative to: not given
Reading: higher = stronger binding
Target sequence (chain): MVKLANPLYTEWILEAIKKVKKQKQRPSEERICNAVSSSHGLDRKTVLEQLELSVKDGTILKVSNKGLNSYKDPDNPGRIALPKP
Sequence	E-score
GTTCGGCA	0.00952
AGCGAAAG	0.0582
GACCTCCC	0.0666
ACATGGCG	0.215
AGATGTAG	-0.0755
AGGTTAAT	-0.146
TGAAGCCA	-0.224
AGCAATTC	-0.0813
GGTGCTAC	-0.0391
ACTGCCGC	0.373
GTCTCCAA	-0.141
CTGTACGA	-0.154
AGGACGCC	0.0704
ACCAATCG	-0.0866
ACTCTGAG	-0.18
CGGATCTC	0.0686
AGGATCAG	-0.163

Set 4
Target: Sal-like protein 4, full length isoform B (SALL4, Homo sapiens, UniProt Q9UJQ4-2, residues 1-616)
Method: universal PBM
Form: double-stranded DNA, one strand shown
Medium: in vitro
Concentration: not given
Setting: 8-mer, flanks averaged, mean of replicates
Reading: higher = stronger binding
Residues (chain): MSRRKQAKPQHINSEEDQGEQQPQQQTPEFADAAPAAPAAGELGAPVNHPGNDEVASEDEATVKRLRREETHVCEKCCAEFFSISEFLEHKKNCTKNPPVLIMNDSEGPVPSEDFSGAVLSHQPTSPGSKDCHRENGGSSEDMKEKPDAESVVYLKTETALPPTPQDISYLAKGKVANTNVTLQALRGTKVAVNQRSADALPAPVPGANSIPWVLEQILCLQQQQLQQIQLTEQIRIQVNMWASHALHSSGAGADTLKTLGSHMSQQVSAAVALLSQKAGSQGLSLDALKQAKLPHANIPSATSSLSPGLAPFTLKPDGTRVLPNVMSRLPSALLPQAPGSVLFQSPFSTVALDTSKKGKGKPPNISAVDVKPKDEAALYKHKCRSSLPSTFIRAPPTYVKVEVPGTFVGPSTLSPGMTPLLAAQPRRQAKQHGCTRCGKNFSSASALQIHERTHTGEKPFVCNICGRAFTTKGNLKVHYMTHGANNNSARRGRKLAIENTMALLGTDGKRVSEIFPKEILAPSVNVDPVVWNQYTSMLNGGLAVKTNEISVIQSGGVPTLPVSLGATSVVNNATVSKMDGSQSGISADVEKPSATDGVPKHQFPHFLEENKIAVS
Sequence	E-score
ATAGGTAC	0.164
ATAACACG	0.176
TACCGGAA	-0.0168
ACCACAAC	0.0682
CATTTGGA	0.0872
AGTCTGCC	-0.172
AGCTGTTG	0.0501
CTACTCAG	-0.195
ATGGCTCC	-0.13
CATGCCCC	-0.21
CCTGTTCG	-0.204
AGTTAAAG	-0.0447
GCCTCTTA	-0.0738
GTTAGGTA	0.119
AAACTACT	0.165
GTGGGAAA	0.0347
GGTTAATA	0.278
AGCCAGAC	-0.232

Set 5
Target: Interferon regulatory factor 3, full length, phosphomimetic (IRF3, Homo sapiens, UniProt Q14653, residues 1-427, S386D/S396D/S398D/S402D/T404D/S405D)
Method: protein-binding microarray
Form: double-stranded DNA, one strand shown
Medium: in vitro
Concentration: 2540 nM top
Setting: 60-bp whole probe
Added: salmon DNA 0.4 mg/ml
Relative to: random background probes
Reading: higher = stronger binding
Shared flanks, not repeated: GCCTAGCAC … GTCTTGATTCGCTTGACGCTGCTG
Construct (chain): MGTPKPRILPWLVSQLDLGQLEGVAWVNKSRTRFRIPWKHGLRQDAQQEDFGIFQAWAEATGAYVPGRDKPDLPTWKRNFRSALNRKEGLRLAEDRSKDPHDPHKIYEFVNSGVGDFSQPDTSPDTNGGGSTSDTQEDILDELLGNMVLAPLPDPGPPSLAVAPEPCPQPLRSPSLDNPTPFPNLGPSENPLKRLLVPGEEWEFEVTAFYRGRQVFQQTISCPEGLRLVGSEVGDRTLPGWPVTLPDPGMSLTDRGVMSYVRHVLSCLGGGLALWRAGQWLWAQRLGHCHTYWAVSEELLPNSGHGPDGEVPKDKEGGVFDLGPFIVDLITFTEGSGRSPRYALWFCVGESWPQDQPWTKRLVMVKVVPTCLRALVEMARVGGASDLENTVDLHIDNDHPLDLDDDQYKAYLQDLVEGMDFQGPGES
Sequence	fitted relative affinity [z-score]
GACGGTATCCTACTGCTGAGGTGCTAG	2.63
TCATTTTTAATGAATGAAACTGTGCTA	1.14
TCAGGTCTCGGTCTCGGTTAGTGCTAG	1.84
GCCGATATCAGTTTCGAGACGTGCTAG	3.56
ACACGGCTCTAAACTCATGTAGTGCTA	-0.421
AGCACTCCAGAGGCAGAGGCGTGCTAG	-0.973
AGCTGTTTGAGAAATCAGATGGTGCTA	-0.0785
GACGCTATCGGGTATCGAGACGTGCTA	-0.032
TTAGGTTTCGGGTATCGGGTAGTGCTA	4.28
GACGGTTTCGGGTTTCTGGACGTGCTA	5.61
TTAGATATCGGGACTGGATAAGTGCTA	0.0588
AACGGTATCCTACTGCTGACGTGCTAG	2.71
TTAGATTTCGGGTTTCGATCAGTGCTA	3
TTAGGTTTCGGTCACGGTTAGTGCTAG	4.85
GACGGTATTCTACTGCTGACGTGCTAG	0.159
TCAAGTTTCTCCTTTCCACTGTGCTAG	2.68
CTAGATATCAGACTGGATTAGTGCTAG	0.348
TAGGCTCCAGGTTCTCTGAAGGTGCTA	-0.408
TTAGGTCTCGGTCTCGGCTAGTGCTAG	0.725
TTAGATATCAGTCTTGATTAGTGCTAG	1.11
TCAATTCTTTTTATGCTACTGTGCTAG	1.13
GACGGATTCGGGTATCGGGACGTGCTA	1.22
TTAGAAATCGGGTTTCGATTAGTGCTA	2.04
TCACATATGTTTTTCATACTGTGCTAG	1.01
CAACTTTTTTTAATTGAGAAGTGCTAG	1.05
